Experimental data pooled from the literature.
Numbered parts are unrelated; each lists some results of a single study. Values joined by “and” are separate records of one study, mostly repeats; a detail may differ.

Block 1
Organism: Sarcocystis neurona
Read-out: parasite growth
Concentration: 10 µM
Time: 96 h
Setting: first screen
Relative to: untreated
Endpoint: log2 fold change
CC[C@]1(O)CC[C@H]2[C@@H]3CCC4=CCCC[C@@H]4[C@H]3CC[C@@]21C: 0.33
CCCCCCNC(=O)n1cc(F)c(=O)[nH]c1=O: -3.66
O=C1Nc2ccc(Cl)cc2C(c2ccccc2Cl)=NC1O (centres unmarked): 0.51

Block 2
Target: Bromodomain-containing protein 4, BD1 (BRD4, Homo sapiens, UniProt O60885)
Read-out: acetyl-histone H4 peptide binding
Technique: AlphaScreen displacement
Concentration: 50 µM
Endpoint: inhibition
COC(=O)c1ccc(NC=C2C(=O)NC(=O)N(c3ccccc3)C2=O)cc1: 7.8%
Nc1ncnc2c1ncn2[C@@H]1O[C@H](COP(=O)(O)CP(=O)(O)O)[C@@H](O)[C@H]1O: 2.65%
Cc1ccc(NC=C2C(=O)NC(=O)N(c3ccccc3)C2=O)cc1Cl: 20.8%
COc1ccc(NC=C2C(=O)NC(=O)N(c3ccc(C)cc3)C2=O)cc1: 13.1%

Block 3
Cell line: mouse MPNST tumor cells
Technique: high-content nuclear imaging
Measured: cell number
Concentration: 10 µM
Time: 12 h
Setting: mean of 2 replicates
Relative to: plate mean
Direction: higher = more cells
Endpoint: nuclei count
CCCC(C)(COC(N)=O)COC(=O)NC(C)C (centres unmarked): 1.11 z-score
Oc1ccc2c3c1O[C@H]1c4[nH]c5ccccc5c4C[C@@]4(O)[C@@H](C2)N(CC2CC2)CC[C@]314: 1.17 z-score
Cc1sc2c(c1C)C(c1ccc(Cl)cc1)=NC(CC(=O)OC(C)(C)C)c1nnc(C)n1-2 (centres unmarked): -2.73 z-score
O=C(Nc1ccccc1)C(=O)c1cn(Cc2ccccc2)c2ccccc12: -0.898 z-score

Block 4
Compound: CC(C)S(=O)(=O)c1cc2c(Nc3ccc4sc(C5CCCC5)nc4c3)ccnc2cc1OCCO
Endpoint: viability
L929; CCK-8; 25 µM, with: zVAD: 59.9% and 77.3% and 78.3%
L929 RIPK3 knockout; 1.563 µM: 98.5% and 95.1% and 91.4% and 99.8%
L929; CCK-8; 6.25 µM, with: zVAD: 97% and 93.2% and 93.7% and 88.3%
L929; necroptosis protection, CCK-8; 0.014 µM, with: TNF-α plus zVAD: 28.2%
L929 RIPK3 knockout; 25 µM, with: zVAD: 72.8% and 72.3% and 71.1% and 71.4%
L929 RIPK3 knockout; 25 µM: 71.6% and 71.8% and 75.3% and 73.4%
L929 RIPK3 knockout; 100 µM: 11.8% and 18.2% and 11.3% and 11.1%
L929; CCK-8; 6.25 µM: 93% and 90.2% and 86.5% and 89.9% and 84.9%
L929 RIPK3 knockout; 12.5 µM: 84.5% and 90.5% and 83.8% and 89.3%
L929; necroptosis protection, CCK-8; 3.333 µM, with: TNF-α plus zVAD: 91.2%
L929; CCK-8; 1.563 µM: 100% and 98.6% and 95.9%

Further values, each from its own experiment
[N-]=[N+]=CC(=O)CC[C@H](N)C(=O)O — FGAR level (mouse, EL4 tumour-bearing, EL4 tumour; subcutaneous, dose not given): 709 nmol/g

Some of these lines once more (block 1):
CC[C@]1(O)CC[C@H]2[C@@H]3CCC4=CCCC[C@@H]4[C@H]3CC[C@@]21C: 0.33
CCCCCCNC(=O)n1cc(F)c(=O)[nH]c1=O: -3.66
